Published values from different studies.
Compare with care: the assays were run in different laboratories.
Target: Mitogen-activated protein kinase kinase kinase 10 (MAP3K10, Homo sapiens, UniProt Q02779)

CC(C)=CC1OC(C)(C)C2C=C3C(=O)C(Cl)=CC(O)C3C3C(O)C4OC4C(=O)C132 (centres unmarked) gave a remaining binding of 77% (cell-free assay, competition with immobilised ligand; 10 µM).
The remaining binding of C=CC(=O)N1CCCC(n2c(=O)c3ncccc3n(Cc3ccc(Oc4ccccc4)cc3)c2=O)C1 (centres unmarked) is reported as 73% (cell-free assay, competition with immobilised ligand; 1 µM).
COc1c(Cl)cccc1Nc1c(-c2ccncc2C#C[C@@]2(C)CCCN2C(=O)/C=C/CN(C)C)[nH]c2c1C(=O)NCC2 gave a remaining binding of 70% (binding, competition with immobilised ligand; 3 µM).
For CNC(=O)C1CCN(c2cc(C)c(F)cc2NC(=O)c2ccc(-c3cc(O)ccc3C)c(C)c2)CC1, the remaining binding was 78% (binding, competition with immobilised ligand; 1 µM).
For C=CC(=O)N1Cc2nc(-c3cc(-c4cc(Cl)cnc4Cl)c(F)cc3F)n(-c3ccncn3)c2C1, the inhibition was -1% (cell-free assay, inhibitor; 1 µM).
With CCN1CCN(Cc2ccc(C(=O)Nc3ccc(C)c(NCc4cnc5[nH]ccc5c4OC)c3)cc2C(F)(F)F)CC1 the remaining binding was 55% (binding, competition with immobilised ligand; 1 µM).
The inhibition of NC(=O)[C@@H](O)C[C@H]1CCc2sc3ncnc(O[C@H]4CC[C@H](N5CCOCC5)CC4)c3c21 is reported as 4% (enzyme activity, inhibitor; 10 µM).
O=C(Cc1ccc(OCc2ccccc2)cc1)NC1(C(=O)O)CCN(C(=O)c2ccc(-c3cccc(Cl)c3)cc2)CC1 — result for “activity vs control”: 103% (enzyme activity, inhibitor; 10 µM).
The remaining activity of Nc1ncc(-c2cc(-c3cnn(CC(F)(F)F)c3)ncc2F)nc1C(=O)NC1CNCC(F)C1 (centres unmarked) is reported as 87.5% (enzyme activity; 1 µM; baseline: DMSO control).
CCn1cc(C(=O)O)c(=O)c2c(N)c(F)c(NC3CCCCC3)cc21 gave an inhibition of 3.8% (kinase activity; 0.1 µM, added: ATP at Km).
C=CC(=O)N1CCc2ccc(-n3c(=O)ccc4cnc5ccc(-c6cnn(C)c6)cc5c43)cc21 has a remaining binding of 100% (KINOMEscan; 1 µM; baseline: DMSO control).
COc1cc(Nc2nccc(-c3cnn4nc(OC)ccc34)n2)cc(C(F)(F)F)c1 has a remaining binding of 89% (binding, competition with immobilised ligand; 1 µM).
For CN1CC[C@@H](COc2cnc(C#N)cc2-c2ccn3nc(NC(=O)C4CC4)cc3c2)C1, the inhibition was 11% (enzyme activity, inhibitor; 1 µM).
The remaining binding of Nc1ncc2c(n1)-c1c([nH]c3ccc(C4=CCOCC4)cc13)CCC2 is reported as 100% (binding, competition with immobilised ligand; 1 µM).
CNC(=O)C[C@H](Cc1ccc(C#N)cc1)NC(=O)c1cc(-c2ccc(CN[C@H](C)c3ccc(C)cc3)o2)ccc1Cl: “activity vs control” 98% (enzyme activity, inhibitor; 1 µM).
For NC(=O)C[C@H]1CCc2sc3ncnc(O[C@H]4CC[C@H](N5CCOCC5)CC4)c3c21, the inhibition was -2% (enzyme activity, inhibitor; 10 µM).
For Cc1cnc2nc1Nc1cccc(c1)COC/C=C/COCc1cc(ccc1OCCN1CCOCC1)N2, the remaining binding was 67% (binding, competition with immobilised ligand; 0.1 µM).
CNC1C[S+]2CC[S+]3CC[S+](C1)[Ru-4]321([N]=C=S)[n]2c3ccc(OC)cc3c3c4c(c5cc(F)c[n+]1c5c32)C(=O)NC4=O (centres unmarked) has a remaining binding of 80% (KinomeScan; 0.1 µM; baseline: untreated).
Cc1ccc(-c2c(/C=C(\C#N)C(=O)NC(C)C)n(CCCO)c3ncnc(N)c23)cc1 gave a remaining binding of 87% (cell-free assay, competition with immobilised ligand; 1 µM).
The inhibition of CN1CCN(Cc2ccc(-c3ccc(CO[C@H]4CCC[C@@H]4NC(=O)c4cc(-c5cnn(C)c5)cnc4N)cc3)cc2)CC1 is reported as -1% (enzyme activity, inhibitor; 0.1 µM).

For quick reference, copied from above:
For CNC(=O)C1CCN(c2cc(C)c(F)cc2NC(=O)c2ccc(-c3cc(O)ccc3C)c(C)c2)CC1, the remaining binding was 78% (binding, competition with immobilised ligand; 1 µM).
For C=CC(=O)N1Cc2nc(-c3cc(-c4cc(Cl)cnc4Cl)c(F)cc3F)n(-c3ccncn3)c2C1, the inhibition was -1% (cell-free assay, inhibitor; 1 µM).
With CCN1CCN(Cc2ccc(C(=O)Nc3ccc(C)c(NCc4cnc5[nH]ccc5c4OC)c3)cc2C(F)(F)F)CC1 the remaining binding was 55% (binding, competition with immobilised ligand; 1 µM).
